Measurements pooled from the literature.
± marks the error that the study gave.

Sequences of proteins named here, by UniProt entry; tags and fusion partners are left off.
UniProt Q9BXM7, whole entry, looked up: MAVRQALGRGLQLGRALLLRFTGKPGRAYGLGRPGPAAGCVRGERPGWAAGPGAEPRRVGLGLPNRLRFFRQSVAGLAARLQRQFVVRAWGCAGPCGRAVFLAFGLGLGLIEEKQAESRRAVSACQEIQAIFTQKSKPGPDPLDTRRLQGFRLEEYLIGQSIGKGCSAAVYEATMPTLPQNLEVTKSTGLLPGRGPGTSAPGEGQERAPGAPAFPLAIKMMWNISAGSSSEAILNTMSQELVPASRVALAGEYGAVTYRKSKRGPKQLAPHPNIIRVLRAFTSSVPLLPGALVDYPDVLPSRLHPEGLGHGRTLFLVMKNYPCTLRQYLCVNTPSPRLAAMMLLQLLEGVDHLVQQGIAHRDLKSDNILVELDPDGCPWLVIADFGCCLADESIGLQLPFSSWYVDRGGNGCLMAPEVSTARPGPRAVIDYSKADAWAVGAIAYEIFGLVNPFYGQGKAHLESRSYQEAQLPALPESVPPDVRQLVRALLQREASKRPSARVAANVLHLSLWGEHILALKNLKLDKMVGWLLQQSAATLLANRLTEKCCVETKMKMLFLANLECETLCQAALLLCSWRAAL
UniProt P51451, whole entry: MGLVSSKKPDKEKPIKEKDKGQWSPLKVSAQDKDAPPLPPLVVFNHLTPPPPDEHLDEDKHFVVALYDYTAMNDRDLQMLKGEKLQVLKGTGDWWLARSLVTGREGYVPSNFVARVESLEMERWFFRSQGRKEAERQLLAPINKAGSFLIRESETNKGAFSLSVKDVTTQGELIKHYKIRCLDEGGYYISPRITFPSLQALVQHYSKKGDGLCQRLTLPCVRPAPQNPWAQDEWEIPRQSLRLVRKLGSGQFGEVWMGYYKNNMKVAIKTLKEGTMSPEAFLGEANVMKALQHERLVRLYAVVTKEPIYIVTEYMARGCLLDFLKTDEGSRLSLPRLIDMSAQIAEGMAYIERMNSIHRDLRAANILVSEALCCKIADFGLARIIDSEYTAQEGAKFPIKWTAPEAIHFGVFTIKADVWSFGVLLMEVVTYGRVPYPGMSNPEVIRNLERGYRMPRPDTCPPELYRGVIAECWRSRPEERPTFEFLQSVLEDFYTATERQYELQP

Substance | tested on | test | test system | setting | scale | quantity | value
CC[C@H](C)[C@H](NC(=O)[C@H](CO)NC(=O)[C@@H]1CCCN1C(=O)[C@H](CO)NC(=O)[C@@H](N)CCSC)C(=O)N[C@@H](CC(C)C)C(=O)N[C@@H](CCCCN)C(=O)N[C@@H](Cc1c[nH]cn1)C(=O)N[C@@H](Cc1c[nH]c2ccccc12)C(=O)N[C@@H](CO)C(=O)N[C@@H](CCCNC(=N)N)C(=O)N[C@@H](CCC(N)=O)C(=O)NCC(=O)NCC(=O)NCC(=O)N[C@@H](CCCCN)C(=O)N[C@@H](CCCCN)C(=O)N[C@@H](CC(C)C)C(=O)N[C@@H](CC(C)C)C(=O)NCC(=O)N[C@@H](CC(C)C)C(=O)N[C@@H](CC(C)C)C(=O)N[C@@H](CC(C)C)C(=O)N[C@@H](CCCCN)C(=O)N[C@@H](CC(C)C)C(=O)N[C@@H](CCCCN)C(=O)N[C@@H](CC(C)C)C(=O)N[C@@H](CCCCN)C(=O)O | HEK293T |  |  |  | baseline: CT10 over MIC | selectivity index | 16
CC1CCC2(CC1)OOCOCOOC1(CCC(C)CC1)OO2 (centres unmarked) | Jurkat | cytotoxicity, 7-AAD flow cytometry |  |  |  | IC50 | 7.62 ± 0.14 µM
CCN1CCN(Cc2ccc(NC(=O)c3ccc(C)c(/C=C/c4cnc5[nH]ccc5c4OC)c3)cc2C(F)(F)F)CC1 | PINK1 (Homo sapiens, UniProt Q9BXM7) | inhibitor, cell-based kinome screen | human cells | 5 µM | baseline: vehicle | log2 fold change | 0.328
Cc1csc(CCCNCc2cc(=O)c3cc(F)ccc3[nH]2)n1 | cells expressing human DRD4 | arrestin over Gαi/o signalling |  |  | baseline: quinpirole | bias factor | 20 fold
Cc1cc(N(CCCl)CCCl)ccc1C=O | ACHN | cell growth, inhibitor, MTT |  |  |  | IC50 | 6.13 µg/mL
Cc1ccc(-c2csc(N(CC3OC(n4c[n+](Cc5ccccc5)c5c(=O)[nH]c(NC(=O)c6ccccc6)nc54)C4OC(C)(C)OC34)P(=O)([O-])O)n2)cc1 (centres unmarked) | Vero | cell growth, SRB |  |  |  | IC50 | > 100 µM
C1CCC2(C1)OOCOCOOC1(CCCC1)OO2 | HEK293 | cytotoxicity, 7-AAD flow cytometry |  |  |  | IC50 | 18.3 ± 0.31 µM
CC#C/C(=N\OC[C@H]1COCCN1)c1ccc2ncnc(Nc3ccc(OCc4cccc(F)c4)c(Cl)c3)c2c1 | BLK (Homo sapiens, UniProt P51451) | kinase activity |  | 10 µM |  | inhibition | 42.9%
O=C(O[C@@H]1[C@@H](O)[C@H](Oc2cc(O)c(C(=O)CCc3ccccc3)c(O)c2)O[C@@H]2COC(=O)c3cc(O)c(O)c(O)c3-c3c(cc(O)c(O)c3O)C(=O)O[C@@H]12)c1cc(O)c(O)c(O)c1 | porcine alveolar macrophages |  |  |  | baseline: CC50 over EC50 | selectivity index | 251
CC[C@H](C)[C@H](NC(=O)[C@H](CO)NC(=O)[C@@H]1CCCN1C(=O)[C@H](CO)NC(=O)[C@@H](N)CCSC)C(=O)N[C@@H](CC(C)C)C(=O)N[C@@H](CCCCN)C(=O)N[C@@H](Cc1c[nH]cn1)C(=O)N[C@@H](Cc1c[nH]c2ccccc12)C(=O)N[C@@H](CO)C(=O)N[C@@H](CCCNC(=N)N)C(=O)N[C@@H](CCC(N)=O)C(=O)NCC(=O)NCC(=O)NCC(=O)N[C@@H](CCCCN)C(=O)N[C@@H](CC(C)C)C(=O)N[C@@H](CCCCN)C(=O)N[C@@H](CCCCN)C(=O)N[C@@H](CC(C)C)C(=O)N[C@@H](CC(C)C)C(=O)N[C@@H](CC(C)C)C(=O)NCC(=O)N[C@@H](CC(C)C)C(=O)N[C@@H](CC(C)C)C(=O)N[C@@H](CC(C)C)C(=O)N[C@@H](CCCCN)C(=O)N[C@@H](CCCCN)C(=O)O | HEK293T |  |  |  | baseline: CT10 over MIC | selectivity index | 32
C(CCCCCN1COOC2(CCCCCC2)OOC2(CCCCCC2)OOC1)CCCCN1COOC2(CCCCCC2)OOC2(CCCCCC2)OOC1 | Jurkat | annexin V/7-AAD |  | 3.0 µM, 24 h |  | late apoptotic cells | 53.7%
fluorouracil | HCT-116 | cell viability, MTS |  |  |  | IC50 | 3.62 ± 1.22 µM
C(CCCCCN1COOC2(CCCC2)OOC2(CCCC2)OOC1)CCCCN1COOC2(CCCC2)OOC2(CCCC2)OOC1 | HEK293 | cytotoxicity, 7-AAD flow cytometry |  |  |  | IC50 | 15.3 ± 0.29 µM
CCOc1ccc(Cc2nc3cc(C(=O)N(CC)CC)ccc3n2CCC(C)C)cc1 | N9 | Western blot, item: IL-1β and iNOS |  | 1, 2.5 and 5 µM, 24 h, with: LPS 100 ng/mL |  | M1 marker levels | decreased
